{"data": "Assay results from different studies", "note": "A part holds a random share of what one study measured."}
{"data": "Set 1", "target": "RNA binding protein fox-1 homolog 2, RRM domain, GST-SBP tag (RBFOX2, Homo sapiens, UniProt O43251-10, residues 100-194)", "technique": "RNA Bind-n-Seq", "form": "RNA", "medium": "in vitro", "tested at": "365 nM", "setting": "natural RNA segment, single round, ends assumed", "reference": "no-protein control", "reading": "higher = stronger binding", "all sequences stand within": "GGGAGUUCUACAGUCCGACGAUC … UGGAAUUCUCGGGUGCCAA", "Target sequence (chain)": "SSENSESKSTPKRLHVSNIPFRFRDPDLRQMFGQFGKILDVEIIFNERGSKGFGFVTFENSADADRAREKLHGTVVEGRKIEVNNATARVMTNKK"}
{"Oligonucleotide": "UCCUCCAGCAUAACCCCAGUUGGCUGACGUGAGCCUAUUCCAUCUGAGGCCAUUCUCUCUUUGGUUCCUUUCUAAUCUAUCCACACAUGCCUUUCCCUUCUUUGAUCCCC", "RBNS enrichment (R)": 1.67}
{"Oligonucleotide": "GAAGACUCAUGUUUAUGUCUGGAAUAAGUUCUGUUUGUGCUGACAGGUGGCCUAGGUCCUGGAGAUGAGCACCCUCUCUCUGGCCUUUAGGGAGUCCCCUCUUAGGACAG", "RBNS enrichment (R)": 0.599}
{"Oligonucleotide": "AACGAGAAGUGCCCUUAAGGAUCACCCCAGCCCCCACAGCCCUGGAAUAAAUUUCGCAAUUAGUUUCAGCUACCUUUGCCUGUGUACGUUCUGGGGCCAAAGCAGAACGG", "RBNS enrichment (R)": 0.361}
{"Oligonucleotide": "AUUAGAAAAUAUGAAGUCGCAUGCACUGGAUAUCUAUAUAUCAUUAGGUUUUUGUUGUGUUUUUGGUUAUGCUGUCCCCCUUCUCCUUGGGGAGAUAUUUGGGAGCAAAC", "RBNS enrichment (R)": 1.84}
{"Oligonucleotide": "ACAGUCCUUUAUCCACCUGGAUUUUUAGGGAAAAAAAUGAAAAAGAAUAAGUCACAUUGGUUCCAUGGCCACAAACCAUUCAGAUCAGCCACUUGCUGACCCUGGUUCUU", "RBNS enrichment (R)": 0.324}
{"data": "Set 2", "target": "Sal-like protein 4, full length isoform B (SALL4, Homo sapiens, UniProt Q9UJQ4-2, residues 1-616)", "technique": "universal PBM", "form": "double-stranded DNA, one strand shown", "medium": "in vitro", "tested at": "not given", "setting": "8-mer, flanks averaged, mean of replicates", "reading": "higher = stronger binding", "Target sequence (chain)": "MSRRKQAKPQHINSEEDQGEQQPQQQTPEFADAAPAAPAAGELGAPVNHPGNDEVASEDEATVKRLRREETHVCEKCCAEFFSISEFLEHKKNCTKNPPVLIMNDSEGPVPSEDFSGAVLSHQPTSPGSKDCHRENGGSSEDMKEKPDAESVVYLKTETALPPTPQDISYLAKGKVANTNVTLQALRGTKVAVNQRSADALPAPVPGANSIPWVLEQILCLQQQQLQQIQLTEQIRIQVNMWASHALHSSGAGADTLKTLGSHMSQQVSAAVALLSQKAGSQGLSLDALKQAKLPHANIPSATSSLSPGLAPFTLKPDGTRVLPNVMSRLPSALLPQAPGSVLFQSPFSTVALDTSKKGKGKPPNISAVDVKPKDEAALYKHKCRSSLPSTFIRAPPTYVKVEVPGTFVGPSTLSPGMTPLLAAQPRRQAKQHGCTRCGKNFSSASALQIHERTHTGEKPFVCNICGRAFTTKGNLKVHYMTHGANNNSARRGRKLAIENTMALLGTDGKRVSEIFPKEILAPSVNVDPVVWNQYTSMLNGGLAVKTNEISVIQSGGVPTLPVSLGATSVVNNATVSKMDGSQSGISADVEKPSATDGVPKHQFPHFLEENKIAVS"}
{"Oligonucleotide": "GTCGGCTA", "E-score": -0.113}
{"Oligonucleotide": "AGATCGAG", "E-score": -0.025}
{"Oligonucleotide": "AACCCCGA", "E-score": -0.159}
{"Oligonucleotide": "CACCTCAC", "E-score": -0.158}
{"data": "Set 3", "target": "PABPC1L2, full length, GST fusion (mouse, UniProt A0ABA7IW68)", "technique": "RNAcompete", "form": "RNA", "medium": "in vitro", "tested at": "20 nM", "setting": "7-mer, probes averaged, single round", "reference": "mean of 7-mers", "reading": "higher = stronger binding", "Construct (chain)": "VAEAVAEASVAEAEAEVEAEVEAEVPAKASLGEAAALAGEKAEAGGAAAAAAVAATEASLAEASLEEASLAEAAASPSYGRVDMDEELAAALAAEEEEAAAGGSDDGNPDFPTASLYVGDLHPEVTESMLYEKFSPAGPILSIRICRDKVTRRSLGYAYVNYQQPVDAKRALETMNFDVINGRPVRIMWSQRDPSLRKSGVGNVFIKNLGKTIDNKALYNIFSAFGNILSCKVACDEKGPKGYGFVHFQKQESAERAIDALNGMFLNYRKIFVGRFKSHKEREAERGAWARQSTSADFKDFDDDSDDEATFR"}
{"Oligonucleotide": "GCACGAU", "7-mer Z-score": -0.0283}
{"Oligonucleotide": "CACUAGG", "7-mer Z-score": 0.00798}
{"Oligonucleotide": "GAUGCUA", "7-mer Z-score": -0.0826}
{"Oligonucleotide": "AUUAUCC", "7-mer Z-score": -0.269}
{"Oligonucleotide": "UACUGUC", "7-mer Z-score": -0.327}
{"Oligonucleotide": "GACCCUC", "7-mer Z-score": -0.32}
{"data": "Other studies, line by line"}
{"Substance": "PhoQ, residues 284 288 289 292 302 303 GNNTDL", "target": "PhoP, residues 12 14 15 18 19 LYHSL (Escherichia coli, UniProt P23836)", "assay": "Sort-seq, measured: YFP reporter", "system": "E. coli", "setting": "PhoQ-PhoP variant library, together with: 10 µM Mg2+", "scale": "reference: high Mg2+ state, higher = stronger signaling", "quantity": "fold induction", "result": 2.17}
{"note": "Some of these lines once more (set 3):"}
{"Oligonucleotide": "GCACGAU", "7-mer Z-score": -0.0283}
{"Oligonucleotide": "UACUGUC", "7-mer Z-score": -0.327}
